Measured values from different studies.
Compare with care: the assays were run in different laboratories. ± marks the error that the study gave.
MCA2: Metacaspase-2 (MCA2, Trypanosoma brucei brucei, UniProt Q585F3)
Sequence of UniProt Q585F3 (whole entry, looked up): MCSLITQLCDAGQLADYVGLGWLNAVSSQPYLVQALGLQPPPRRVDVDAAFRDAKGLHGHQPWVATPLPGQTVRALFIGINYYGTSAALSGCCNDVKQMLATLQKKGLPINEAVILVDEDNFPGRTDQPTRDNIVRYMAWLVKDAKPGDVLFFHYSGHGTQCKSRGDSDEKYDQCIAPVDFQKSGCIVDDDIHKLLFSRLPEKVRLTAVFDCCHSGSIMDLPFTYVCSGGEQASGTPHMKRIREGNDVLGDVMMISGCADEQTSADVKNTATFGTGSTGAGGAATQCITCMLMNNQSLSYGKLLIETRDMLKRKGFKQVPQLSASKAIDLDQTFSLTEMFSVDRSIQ
Genome polyprotein NS2B-NS3 protease: Genome polyprotein, NS2B-NS3 protease (ZIKV, UniProt A0A024B7W1)
Sequence of UniProt A0A024B7W1 (whole entry, looked up): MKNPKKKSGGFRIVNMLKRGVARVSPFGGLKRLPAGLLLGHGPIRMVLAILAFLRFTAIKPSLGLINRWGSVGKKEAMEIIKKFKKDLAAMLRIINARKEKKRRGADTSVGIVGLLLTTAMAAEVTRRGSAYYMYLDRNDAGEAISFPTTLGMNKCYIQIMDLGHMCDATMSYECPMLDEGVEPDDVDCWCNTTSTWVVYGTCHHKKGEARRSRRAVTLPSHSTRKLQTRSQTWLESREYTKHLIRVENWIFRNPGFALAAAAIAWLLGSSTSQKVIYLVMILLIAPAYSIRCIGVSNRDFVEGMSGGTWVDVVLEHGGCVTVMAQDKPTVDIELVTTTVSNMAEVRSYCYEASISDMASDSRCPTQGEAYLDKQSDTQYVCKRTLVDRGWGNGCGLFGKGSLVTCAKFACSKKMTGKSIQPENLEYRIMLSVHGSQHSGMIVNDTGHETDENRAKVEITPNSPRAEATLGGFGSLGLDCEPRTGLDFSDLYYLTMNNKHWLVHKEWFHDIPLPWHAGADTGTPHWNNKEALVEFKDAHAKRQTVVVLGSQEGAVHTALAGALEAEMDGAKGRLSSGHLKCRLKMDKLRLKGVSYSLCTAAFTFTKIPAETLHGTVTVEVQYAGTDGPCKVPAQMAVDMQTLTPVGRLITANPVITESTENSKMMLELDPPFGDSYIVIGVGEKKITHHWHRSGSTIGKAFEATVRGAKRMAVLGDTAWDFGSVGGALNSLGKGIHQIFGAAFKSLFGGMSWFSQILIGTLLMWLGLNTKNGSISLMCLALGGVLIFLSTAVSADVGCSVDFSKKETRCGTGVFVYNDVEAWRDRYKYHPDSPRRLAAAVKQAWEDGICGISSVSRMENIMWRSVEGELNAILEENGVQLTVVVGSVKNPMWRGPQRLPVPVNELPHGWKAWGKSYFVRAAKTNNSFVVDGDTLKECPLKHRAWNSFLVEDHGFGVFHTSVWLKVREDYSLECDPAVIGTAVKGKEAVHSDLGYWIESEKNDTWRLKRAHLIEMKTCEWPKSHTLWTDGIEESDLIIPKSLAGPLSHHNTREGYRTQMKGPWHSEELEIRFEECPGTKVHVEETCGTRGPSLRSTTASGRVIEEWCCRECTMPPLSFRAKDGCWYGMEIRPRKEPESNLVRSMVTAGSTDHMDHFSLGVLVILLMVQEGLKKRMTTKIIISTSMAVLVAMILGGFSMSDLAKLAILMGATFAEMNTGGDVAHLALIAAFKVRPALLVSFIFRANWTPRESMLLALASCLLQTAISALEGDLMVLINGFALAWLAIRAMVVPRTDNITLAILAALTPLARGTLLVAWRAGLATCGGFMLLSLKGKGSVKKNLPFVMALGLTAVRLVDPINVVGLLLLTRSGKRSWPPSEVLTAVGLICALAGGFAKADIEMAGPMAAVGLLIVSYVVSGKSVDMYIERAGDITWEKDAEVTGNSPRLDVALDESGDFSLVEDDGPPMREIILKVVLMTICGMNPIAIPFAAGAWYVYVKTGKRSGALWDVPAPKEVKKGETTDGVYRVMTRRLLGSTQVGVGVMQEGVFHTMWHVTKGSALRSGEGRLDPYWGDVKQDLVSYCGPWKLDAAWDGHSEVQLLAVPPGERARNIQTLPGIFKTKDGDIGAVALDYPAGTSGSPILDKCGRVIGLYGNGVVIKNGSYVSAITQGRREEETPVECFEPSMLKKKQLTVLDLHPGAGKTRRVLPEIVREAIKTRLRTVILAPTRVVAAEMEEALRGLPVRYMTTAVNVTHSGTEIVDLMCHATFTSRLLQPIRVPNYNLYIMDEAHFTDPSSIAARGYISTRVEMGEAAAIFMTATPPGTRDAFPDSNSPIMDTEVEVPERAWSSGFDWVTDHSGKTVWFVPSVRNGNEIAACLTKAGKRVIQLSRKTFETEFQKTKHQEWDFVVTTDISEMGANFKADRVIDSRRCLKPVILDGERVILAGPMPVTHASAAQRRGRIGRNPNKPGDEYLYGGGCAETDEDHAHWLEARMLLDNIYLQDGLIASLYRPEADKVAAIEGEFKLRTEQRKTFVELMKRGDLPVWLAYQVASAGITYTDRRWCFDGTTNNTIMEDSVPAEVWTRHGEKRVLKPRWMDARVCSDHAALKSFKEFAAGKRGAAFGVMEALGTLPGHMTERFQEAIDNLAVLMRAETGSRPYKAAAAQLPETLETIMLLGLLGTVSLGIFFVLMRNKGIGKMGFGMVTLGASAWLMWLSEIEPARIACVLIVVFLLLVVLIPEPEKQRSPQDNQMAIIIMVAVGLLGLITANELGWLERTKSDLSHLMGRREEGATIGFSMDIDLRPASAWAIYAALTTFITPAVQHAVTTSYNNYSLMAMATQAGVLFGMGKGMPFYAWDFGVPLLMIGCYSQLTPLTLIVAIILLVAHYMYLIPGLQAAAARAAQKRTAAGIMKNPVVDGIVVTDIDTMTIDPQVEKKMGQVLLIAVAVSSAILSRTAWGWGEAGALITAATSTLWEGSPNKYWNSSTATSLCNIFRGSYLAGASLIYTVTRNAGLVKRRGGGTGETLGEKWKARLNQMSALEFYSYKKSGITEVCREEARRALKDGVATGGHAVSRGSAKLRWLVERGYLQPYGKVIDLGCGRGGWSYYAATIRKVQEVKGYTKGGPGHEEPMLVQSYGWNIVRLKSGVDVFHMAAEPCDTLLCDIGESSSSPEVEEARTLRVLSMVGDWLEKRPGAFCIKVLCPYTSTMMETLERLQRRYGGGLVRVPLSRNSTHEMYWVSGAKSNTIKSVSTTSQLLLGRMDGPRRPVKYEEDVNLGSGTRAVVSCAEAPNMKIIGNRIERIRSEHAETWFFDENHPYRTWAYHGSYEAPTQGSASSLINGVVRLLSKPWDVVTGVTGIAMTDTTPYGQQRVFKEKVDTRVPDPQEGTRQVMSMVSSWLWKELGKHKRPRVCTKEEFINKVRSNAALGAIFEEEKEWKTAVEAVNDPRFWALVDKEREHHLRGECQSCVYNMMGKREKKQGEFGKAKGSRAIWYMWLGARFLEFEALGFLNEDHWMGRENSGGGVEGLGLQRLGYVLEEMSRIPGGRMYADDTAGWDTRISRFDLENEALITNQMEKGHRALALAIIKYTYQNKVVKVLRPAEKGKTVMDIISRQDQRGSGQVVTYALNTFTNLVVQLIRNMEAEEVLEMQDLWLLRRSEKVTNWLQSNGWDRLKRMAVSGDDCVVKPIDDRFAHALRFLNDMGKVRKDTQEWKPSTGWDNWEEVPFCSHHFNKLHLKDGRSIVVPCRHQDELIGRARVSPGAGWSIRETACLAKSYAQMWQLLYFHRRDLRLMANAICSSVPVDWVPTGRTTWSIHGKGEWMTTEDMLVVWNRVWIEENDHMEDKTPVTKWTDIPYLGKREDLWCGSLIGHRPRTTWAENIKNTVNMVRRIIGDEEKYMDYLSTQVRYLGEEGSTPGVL
blaNDM-1: Metallo-beta-lactamase type 2 (blaNDM-1, Klebsiella pneumoniae, UniProt C7C422)
Sequence of UniProt C7C422 (whole entry, looked up): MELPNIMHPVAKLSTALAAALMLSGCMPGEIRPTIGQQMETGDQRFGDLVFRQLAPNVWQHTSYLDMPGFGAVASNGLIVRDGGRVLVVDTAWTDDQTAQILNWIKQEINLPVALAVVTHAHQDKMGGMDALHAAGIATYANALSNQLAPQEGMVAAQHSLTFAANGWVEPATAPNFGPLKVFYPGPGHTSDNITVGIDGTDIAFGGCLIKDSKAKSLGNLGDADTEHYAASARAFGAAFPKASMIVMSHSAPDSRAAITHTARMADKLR
Oprm1: Mu-type opioid receptor (Oprm1, Rattus norvegicus, UniProt P33535)
Sequence of UniProt P33535 (whole entry, looked up): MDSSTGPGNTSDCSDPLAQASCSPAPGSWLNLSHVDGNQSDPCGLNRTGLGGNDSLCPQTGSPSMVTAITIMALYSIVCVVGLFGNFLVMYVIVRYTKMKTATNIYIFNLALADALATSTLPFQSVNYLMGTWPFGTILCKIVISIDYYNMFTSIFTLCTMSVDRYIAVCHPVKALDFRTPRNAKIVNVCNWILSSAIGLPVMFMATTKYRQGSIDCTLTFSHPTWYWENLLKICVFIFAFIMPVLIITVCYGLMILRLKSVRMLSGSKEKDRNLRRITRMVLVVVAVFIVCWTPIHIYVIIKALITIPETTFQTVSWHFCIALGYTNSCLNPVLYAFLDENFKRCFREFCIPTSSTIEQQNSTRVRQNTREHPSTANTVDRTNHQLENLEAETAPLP
Sequence of UniProt P37288 (whole entry, looked up): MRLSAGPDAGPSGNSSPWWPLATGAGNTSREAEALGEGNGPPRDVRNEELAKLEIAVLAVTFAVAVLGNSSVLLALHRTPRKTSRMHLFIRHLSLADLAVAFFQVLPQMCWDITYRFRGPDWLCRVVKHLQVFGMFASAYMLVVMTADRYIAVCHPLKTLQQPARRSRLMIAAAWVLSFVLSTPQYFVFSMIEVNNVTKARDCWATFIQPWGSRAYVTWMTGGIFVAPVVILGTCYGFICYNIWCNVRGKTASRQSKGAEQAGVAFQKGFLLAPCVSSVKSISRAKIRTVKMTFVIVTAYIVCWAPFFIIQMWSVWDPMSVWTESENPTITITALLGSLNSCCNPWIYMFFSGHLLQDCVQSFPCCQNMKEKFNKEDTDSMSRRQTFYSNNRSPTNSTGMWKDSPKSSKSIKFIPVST
Sequence of UniProt P15090 (whole entry, looked up): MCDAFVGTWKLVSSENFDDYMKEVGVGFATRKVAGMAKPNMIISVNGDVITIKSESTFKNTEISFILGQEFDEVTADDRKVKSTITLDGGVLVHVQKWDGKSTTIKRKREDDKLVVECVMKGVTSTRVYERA

Structure (SMILES) | target or system | assay | test system | setting | how to read | measurement | result
C[C@H](NC(=O)[C@H](CO)NC(=O)[C@H](CO)NC(=O)[C@H](CCCNC(=N)N)NC(=O)[C@H](Cc1ccccc1)NC(=O)[C@H](CCCCN)NC(=O)c1ccccc1N)C(=O)N[C@@H](CCC(N)=O)C(=O)NCCNc1ccc([N+](=O)[O-])cc1[N+](=O)[O-] | MCA2 | substrate | – | pH 7.4, 25 °C, with: 1 mM CaCl2 | – | Ki | 27100 nM
Cc1ccc(OS(=O)(=O)F)c(C(=O)Nc2ccncc2)c1 | Uncharacterized hydrolase SAUSA300_2518 (Staphylococcus aureus, UniProt Q2FDS6) | enzyme activity, inhibitor | – | – | – | Ki | 2340 nM
C[C@H](NC(=O)[C@H](CCCCN)NC(=O)c1ccccc1N)C(=O)N[C@@H](CC(=O)O)C(=O)N[C@@H](CO)C(=O)N[C@@H](CO)C(=O)N[C@@H](C)C(=O)N[C@@H](CCC(N)=O)C(=O)NCCNc1ccc([N+](=O)[O-])cc1[N+](=O)[O-] | MCA2 | enzyme activity, competitive inhibitor | Trypanosoma brucei | with: Z-FR-AMC substrate | – | Ki | 2900 nM
CC(C)C[C@H](NC(=O)[C@H](CCCCN)NC(=O)[C@H](CCCCN)NC(=O)Cc1cccc(CNC(=O)CNC(=O)CNC(=N)N)c1)B(O)O | Genome polyprotein NS2B-NS3 protease | inhibitor | Zika virus | – | – | Ki | 31.5 ± 4.7 nM
CC(C)[C@@H]1NC(=O)[C@H](Cc2ccccc2)NC(=O)[C@H](Cc2ccc(O)cc2)NC(=O)CCSSC[C@@H](C(=O)N2CCC[C@H]2C(=O)N[C@H](CCCNC(=N)N)C(=O)NCC(N)=O)NC(=O)[C@H](CC(N)=O)NC(=O)[C@H](C(C)C)NC(=O)[C@H](Cc2ccccc2)NC(=O)[C@H](Cc2ccc(O)cc2)NC(=O)CCSSC[C@@H](C(=O)N2CCC[C@H]2C(=O)N[C@H](CCCNC(=N)N)C(=O)NCC(N)=O)NC(=O)[C@H](CC(N)=O)NC1=O | AVPR1A (Homo sapiens, UniProt P37288) | ligand displacement, radioligand | – | cell membranes | – | Ki | 53.4 nM
CC(C)C[C@@H]1NC(=O)[C@@H]2CCCN2C(=O)[C@@H](CS)NC(=O)[C@H](Cc2ccc(O)cc2)NC(=O)[C@@H](CCCNC(=N)N)NC(=O)[C@@H](CCCNC(=N)N)NC(=O)[C@H](CCC(=O)O)NC(=O)[C@@H]2CCCN2C1=O | blaNDM-1 | enzyme activity, inhibitor | – | with: nitrocefin 1.5 µM | – | Ki | 5320 nM
OC1Cc2ccccc2CC1N1CCC2(C=Cc3ccc(Br)cc32)CC1 (racemic) | Tmem97 (Rattus norvegicus, UniProt Q5U3Y7) | radioligand binding | rat liver | with: [3H]DTG, 1 µM dextrallorphan mask | – | Ki | 350 ± 30 nM
C[C@H](NC(=O)[C@H](CCCCN)NC(=O)c1ccccc1N)C(=O)N[C@@H](CO)C(=O)N[C@@H](CO)C(=O)N[C@@H](CO)C(=O)N[C@@H](C)C(=O)N[C@@H](CCC(N)=O)C(=O)NCCNc1ccc([N+](=O)[O-])cc1[N+](=O)[O-] | MCA2 | enzyme activity, competitive inhibitor | Trypanosoma brucei | with: Z-FR-AMC substrate | – | Ki | 7800 nM
Cc1cc(O)cc(C)c1C[C@H](N)C(=O)N[C@H](CCCNC(=N)N)C(=O)N[C@@H](Cc1ccccc1)C(=O)N[C@@H](CCCCN)C(=O)NCCCCCC(=O)N[C@@H](CCCCNC(=O)CN1CCN(CC(=O)O)CCN(CC(=O)O)CCN(CC(=O)O)CC1)C(N)=O | Oprd1 (Mus musculus, UniProt P32300) | binding | CD-1 mouse | – | – | Ki | 33.8 ± 1.8 nM
CC(C)C[C@H](NC(=O)[C@H](C)NC(=O)[C@H](CCCCN)NC(=O)c1ccccc1N)C(=O)N[C@@H](CO)C(=O)N[C@@H](CO)C(=O)N[C@@H](C)C(=O)N[C@@H](CCC(N)=O)C(=O)NCCNc1ccc([N+](=O)[O-])cc1[N+](=O)[O-] | MCA2 | enzyme activity, competitive inhibitor | Trypanosoma brucei | with: Z-FR-AMC substrate | – | Ki | 9400 nM
Cc1cc(O)cc(C)c1C[C@H](N)C(=O)N[C@H](CCCNC(=N)N)C(=O)N[C@@H](Cc1ccccc1)C(=O)N[C@@H](CCCCN)C(=O)NCCCCCCCCCCNC(=O)[C@H](Cc1ccccc1)NC(=O)[C@H](CC1CCCCC1)NC[C@@H]1Cc2ccccc2CN1C(=O)[C@@H](N)Cc1ccc(O)cc1 | Oprm1 | ligand displacement, radioligand | – | cell membranes | – | Ki | 33.4 nM
CC(=O)N[C@@H](CC(C)C)C(=O)N[C@@H](CC(C)C)C(=O)N[C@@H](CC(C)C)C(=O)N[C@@H](CC(C)C)C(=O)N[C@@H](CC(C)C)C(=O)N[C@@H](CC(C)C)C(=O)N[C@@H](CCCNC(=N)N)C(=O)N[C@H](C(=O)N[C@@H](CCCCN)C(=O)N[C@@H](CCCNC(=N)N)C(N)=O)C(C)C | Neuroendocrine convertase 2 (Homo sapiens, UniProt P16519) | enzyme activity, inhibitor | – | – | – | Ki | 1300 nM
CC(C)C[C@H](NC(=O)[C@H](CCCCN)NC(=O)[C@H](CCCCN)NC(=O)Cc1cccc(CNC(=O)[C@@H](C)NC(=N)N)c1)B(O)O | Genome polyprotein NS2B-NS3 protease | inhibitor | Zika virus | – | – | Ki | 8 ± 0.2 nM
CSCC[C@H](NC(=O)[C@H](C)NC(=O)[C@H](CCCCN)NC(=O)c1ccccc1N)C(=O)N[C@@H](CO)C(=O)N[C@@H](CO)C(=O)N[C@@H](C)C(=O)N[C@@H](CCC(N)=O)C(=O)NCCNc1ccc([N+](=O)[O-])cc1[N+](=O)[O-] | MCA2 | enzyme activity, competitive inhibitor | Trypanosoma brucei | with: Z-FR-AMC substrate | – | Ki | 12400 nM
O=C1NC2(CC2)COc2ncc(F)cc2[C@H]2COCCN2c2ccn3ncc1c3n2 | – | – | Sprague-Dawley rat, male, blood | oral, 10 mg/kg/day, end of treatment, 4-week repeated-dose toxicity | reference: red blood cells | reticulocytes | 2.43 ± 1.95%
CC[C@H](C)[C@@H]1NC(=O)[C@@H]2CCCN2C(=O)[C@@H](CS)NC(=O)[C@H](CC(C)C)NC(=O)[C@@H](CCCNC(=N)N)NC(=O)[C@@H](CCCNC(=N)N)NC(=O)[C@H](CCC(=O)O)NC(=O)[C@@H]2CCCN2C1=O | blaNDM-1 | enzyme activity, inhibitor | – | with: nitrocefin 1.5 µM | – | Ki | 1010 nM
CC(C)CCNC(=O)[C@H](CCCCN)NC(=O)[C@H](CCCCN)NC(=O)Cc1cccc(CNC(=O)[C@@H](C)NC(=N)N)c1 | Genome polyprotein NS2B-NS3 protease | NS2B-NS3 protease activity, inhibitor | – | – | – | Ki | > 1000 nM
Cc1cc(N2CC3CC2CN3)nc2cc(Cl)ccc12 (stereo not shown) | Slc6a4 (Rattus norvegicus, UniProt P31652) | ligand displacement, radioligand | – | – | – | Ki | 152 nM
CC[C@H](C)[C@@H]1NC(=O)[C@@H]2CCCN2C(=O)[C@@H](CS)NC(=O)[C@H](Cc2ccc(O)cc2)NC(=O)[C@@H](CCCNC(=N)N)NC(=O)[C@@H](CCCNC(=N)N)NC(=O)[C@H](CCC(=O)O)NC(=O)[C@@H]2CCCN2C1=O | blaNDM-1 | enzyme activity, inhibitor | – | with: nitrocefin 1.5 µM | – | Ki | 2580 nM
Cc1cc(O)cc(C)c1CCC(=O)N[C@@H]1CCCCC[C@@H](C(N)=O)NC(=O)[C@H](Cc2ccccc2)NC(=O)[C@H](Cc2ccccc2)NC1=O | Oprm1 | ligand displacement, radioligand | – | cell membranes | – | Ki | 8.95 nM
CC(C)c1cc2c(c(O)c1O)C1(C=O)CCCC(C)(C)C1CC2 (stereo not shown) | Catenin beta-1, armadillo repeat domain (Mus musculus, UniProt Q02248) | binding, ELISA counter-screen | – | – | – | Ki | 90000 ± 22000 nM
C[C@@H](Cc1ccsc1)NC(=O)NC[C@H](Cc1ccc(O)cc1)N(C)C | NTSR1 (Homo sapiens, UniProt P30989) | – | – | – | – | Ki | > 50000 nM
C[C@H](NC(=O)[C@H](CCCCN)NC(=O)c1ccccc1N)C(=O)N[C@@H](CCCNC(=N)N)C(=O)N[C@@H](CO)C(=O)N1CCC[C@H]1C(=O)N[C@@H](C)C(=O)N[C@@H](CCC(N)=O)C(=O)NCCNc1ccc([N+](=O)[O-])cc1[N+](=O)[O-] | MCA2 | substrate | – | pH 7.4, 25 °C, with: 1 mM CaCl2 | – | Ki | 5900 nM
CC(C)C[C@@H]1NC(=O)[C@@H](CCCNC(=N)N)NC(=O)[C@@H](CCCNC(=N)N)NC(=O)[C@H](CCC(=O)O)NC(=O)[C@@H]2CCCN2C(=O)[C@H](CC(C)C)NC(=O)[C@@H]2CCCN2C(=O)[C@@H](CS)NC1=O | blaNDM-1 | enzyme activity, inhibitor | – | with: nitrocefin 1.5 µM | – | Ki | 6300 nM
CC[C@H](C)[C@H](NC(=O)[C@@H]1CCCN1C(=O)[C@H](CCC(=O)O)NC(=O)[C@H](CCSC)NC(=O)CNC(=O)[C@H](CC(N)=O)NC(=O)CNC(=O)CNC(=O)[C@H](CCC(=O)O)NC(=O)CNC(=O)[C@H](CCCNC(=N)N)NC(=O)[C@H](CCC(N)=O)NC(=O)[C@H](Cc1ccc(O)cc1)NC(=O)[C@H](CC(C)C)NC(=O)[C@H](CCCCN)NC(=O)[C@@H]1CCCN1C(=O)[C@H](CCC(N)=O)NC(=O)[C@H](C)NC(=O)[C@@H](NC(=O)[C@H](CCC(=O)O)NC(=O)[C@H](C)NC(=O)[C@H](CCC(=O)O)NC(=O)[C@@H](NC(=O)[C@@H]1CCCN1C(=O)[C@@H](N)CCCCN)C(C)C)C(C)C)C(=O)N1CCC[C@H]1C(=O)N[C@@H](CCC(=O)O)C(=O)N[C@@H](CC(=O)O)C(=O)N[C@H](C(=O)N[C@@H](CC(C)C)C(=O)N[C@@H](CC(N)=O)C(=O)N[C@@H](CCC(=O)O)C(=O)N[C@@H](C)C(=O)N[C@@H](CC(C)C)C(=O)N[C@@H](CC(N)=O)C(=O)N[C@@H](C)C(=O)O)C(C)C | Prothrombin, gamma-thrombin (F2, Homo sapiens, UniProt P00734) | – | – | pH 8 | – | Ki | 26200 ± 950 nM
O=S(=O)(O)C(F)(F)C(F)(F)C(F)(F)C(F)(F)C(F)(F)C(F)(F)C(F)(F)C(F)(F)F | FABP4 (Homo sapiens, UniProt P15090) | ligand displacement, fluorescence | – | – | – | Ki | 4500 nM
CCCC[C@@H]1NC(=O)[C@@H](CCC(N)=O)NC(=O)[C@H]2CCCN2C(=O)[C@H](CCCCN)NC(=O)[C@@H]2C[C@@H](O)CN2C(=O)[C@H](Cc2ccccc2CN)NC(=O)[C@@H]2CCCN2C(=O)[C@@H](CS)NC1=O | blaNDM-1 | enzyme activity, inhibitor | – | with: nitrocefin 1.5 µM | – | Ki | 114000 nM
Cc1cc(O)cc(C)c1C[C@H](N)C(=O)N[C@H](CCCNC(=N)N)C(=O)N[C@@H](Cc1ccccc1)C(=O)N(C)CC(=O)N(C)Cc1cc(C(F)(F)F)cc(C(F)(F)F)c1 | OPRD1 (Homo sapiens, UniProt P41143, W274F) | – | – | – | – | Ki | 30.1 ± 4.9 nM

Some of these lines once more:
Structure (SMILES) | target or system | assay | test system | setting | how to read | measurement | result
CC(=O)N[C@@H](CC(C)C)C(=O)N[C@@H](CC(C)C)C(=O)N[C@@H](CC(C)C)C(=O)N[C@@H](CC(C)C)C(=O)N[C@@H](CC(C)C)C(=O)N[C@@H](CC(C)C)C(=O)N[C@@H](CCCNC(=N)N)C(=O)N[C@H](C(=O)N[C@@H](CCCCN)C(=O)N[C@@H](CCCNC(=N)N)C(N)=O)C(C)C | Neuroendocrine convertase 2 (Homo sapiens, UniProt P16519) | enzyme activity, inhibitor | – | – | – | Ki | 1300 nM
CC(C)C[C@H](NC(=O)[C@H](CCCCN)NC(=O)[C@H](CCCCN)NC(=O)Cc1cccc(CNC(=O)[C@@H](C)NC(=N)N)c1)B(O)O | Genome polyprotein NS2B-NS3 protease | inhibitor | Zika virus | – | – | Ki | 8 ± 0.2 nM
CSCC[C@H](NC(=O)[C@H](C)NC(=O)[C@H](CCCCN)NC(=O)c1ccccc1N)C(=O)N[C@@H](CO)C(=O)N[C@@H](CO)C(=O)N[C@@H](C)C(=O)N[C@@H](CCC(N)=O)C(=O)NCCNc1ccc([N+](=O)[O-])cc1[N+](=O)[O-] | MCA2 | enzyme activity, competitive inhibitor | Trypanosoma brucei | with: Z-FR-AMC substrate | – | Ki | 12400 nM
O=C1NC2(CC2)COc2ncc(F)cc2[C@H]2COCCN2c2ccn3ncc1c3n2 | – | – | Sprague-Dawley rat, male, blood | oral, 10 mg/kg/day, end of treatment, 4-week repeated-dose toxicity | reference: red blood cells | reticulocytes | 2.43 ± 1.95%
